Published values pooled from the literature.
Lines come from different studies, so protocols differ.
Cell line: HeLa

SMILES | assay | setting | how to read | endpoint | result
CC(=O)N[C@@H](CCCNC(=N)N)C(=O)N[C@@H](CCCNC(=N)N)C(=O)N[C@@H](CCCNC(=N)N)C(=O)N[C@@H](CCCNC(=N)N)C(=O)N[C@@H](CCCNC(=N)N)C(=O)N[C@@H](CCCNC(=N)N)C(=O)N[C@@H](CCCNC(=N)N)C(=O)N[C@@H](CCCNC(=N)N)C(=O)N[C@@H](CCCNC(=N)N)C(=O)N[C@@H](CCCNC(=N)N)C(=O)NCC(=O)N[C@@H](COP(=O)(O)O)C(=O)N1CCC[C@H]1C(=O)N[C@H](C(=O)N[C@@H](Cc1ccccc1)C(=O)O)[C@@H](C)O | DNA damage, immunostaining | 10 µM, 30 min, with: ionizing radiation 0 Gy |  | γH2AX-positive cells | 0%
C[C@H](NC(=O)[C@H](CCCNC(=N)N)NC(=O)[C@H](CCC(=O)O)NC(=O)[C@H](CCCNC(=N)N)NC(=O)[C@H](CCCNC(=N)N)NC(=O)[C@@H](NC(=O)[C@H](CCCNC(=N)N)NC(=O)[C@H](C)NC(=O)[C@H](CCCNC(=N)N)NC(=O)[C@H](CCC(=O)O)NC(=O)[C@@H](N)CCCNC(=N)N)[C@@H](C)O)C(=O)N[C@@H](CCCNC(=N)N)C(=O)N[C@H](C(=O)N[C@@H](CCCNC(=N)N)C(=O)N[C@@H](CCC(=O)O)C(=O)N[C@@H](CCCNC(=N)N)C(=O)N[C@@H](C)C(=O)N[C@@H](CCCNC(=N)N)C(=O)N[C@H](C(=O)N[C@@H](CCCNC(=N)N)C(=O)O)[C@@H](C)O)[C@@H](C)O | measured: VEGF165b | from 25 µM |  | expression level | increased
CCCCCCCCCCCC[C@@H](O)[C@H]1CC[C@H]([C@H](O)CCCCCCCCCCCCCCC2=C[C@H](C)OC2=O)O1 | MTT | concentration not given, 72 h |  | cytotoxicity | inactive
COc1cc(/C=C(\C#N)C(=O)Nc2nnc(C(F)(F)F)s2)ccc1OC(=O)N1CCN(C(=O)CCCC(=O)NCCCC[C@@H]2NC(=O)[C@@H](Cc3ccc(O)cc3)NC(=O)[C@H](CC(=O)O)NC(=O)CNC(=O)[C@H](CCCNC(=N)N)NC2=O)CC1 | cell growth or viability, MTT | 48 h |  | GI50 | 72 µM
CC[C@H](C)[C@@H]([C@@H](CC(=O)N1CCC[C@H]1[C@H](OC)[C@@H](C)C(=O)N[C@@H](Cc1ccccc1)C(=O)O)OC)N(C)C(=O)[C@@H](NC(=O)[C@H](C(C)C)N(C)C(=O)CCSSC[C@H](NC(=O)[C@@H](NC(=O)CNC(=O)[C@H](CCC(=O)O)NC(=O)[C@H](CC(=O)O)NC(=O)[C@H](C)NC(=O)[C@H](CC(=O)O)NC(=O)[C@@H](NC(=O)[C@H](CC(C)C)NC(=O)[C@H](CC(C)C)NC(=O)[C@H](C)NC(=O)[C@H](CC(C)C)NC(=O)[C@H](CC(=O)O)NC(=O)[C@H](CC(C)C)NC(=O)[C@H](CC(C)C)NC(=O)[C@H](CC(C)C)NC(=O)[C@H](CC(C)C)NC(=O)[C@@H]1CCCN1C(=O)[C@@H](NC(=O)[C@@H](NC(=O)[C@H](Cc1ccccc1)NC(=O)[C@H](CC(C)C)NC(=O)[C@H](Cc1c[nH]c2ccccc12)NC(=O)[C@H](CC(=O)O)NC(=O)[C@H](C)NC(=O)[C@H](Cc1ccc(O)cc1)NC(=O)[C@H](CCCNC(=N)N)NC(=O)[C@H](C)NC(=O)[C@H](Cc1c[nH]c2ccccc12)NC(=O)[C@H](Cc1ccc(O)cc1)NC(=O)[C@@H](NC(=O)[C@@H]1CCCN1C(=O)[C@H](CC(N)=O)NC(=O)[C@H](CCC(N)=O)NC(=O)[C@H](CCC(=O)O)NC(=O)CNC(=O)CN)[C@@H](C)CC)[C@@H](C)O)[C@@H](C)O)C(C)C)[C@@H](C)O)C(=O)NCC(N)=O)C(C)C | MTT | without Ca2+ | reference: pH 6.0 over pH 7.4 | IC50 fold decrease | 5 fold
CC(C)C[C@@H](NC(=O)CCNc1ccc([N+](=O)[O-])c2nonc12)C(=O)N[C@H](CC(C)C)C(=O)N[C@H](CC(C)C)C(=O)N[C@H](CC(C)C)C(=O)N[C@H](Cc1ccc(OP(=O)(O)O)cc1)C(=O)O | MTT | 200 µM, 24 h |  | viability | > 60%
CC(=O)N[C@H](CCCNC(=N)N)C(=O)N[C@H](CCCCN)C(=O)N[C@H](Cc1ccc(O)cc1)C(=O)N[C@H](CS)C(N)=O | colony formation | 50 nM, 24 h |  | inhibition | ≤ 50%
Cc1ccc2ccc3ccc(C)nc3c2n1.O.[99Tc+].[C-]#[O+].[C-]#[O+].[C-]#[O+] | flow cytometry | 10 µM, 24 h |  | G2/M phase cells | 51.6%

For quick reference, copied from above:
SMILES | assay | setting | how to read | endpoint | result
CC[C@H](C)[C@@H]([C@@H](CC(=O)N1CCC[C@H]1[C@H](OC)[C@@H](C)C(=O)N[C@@H](Cc1ccccc1)C(=O)O)OC)N(C)C(=O)[C@@H](NC(=O)[C@H](C(C)C)N(C)C(=O)CCSSC[C@H](NC(=O)[C@@H](NC(=O)CNC(=O)[C@H](CCC(=O)O)NC(=O)[C@H](CC(=O)O)NC(=O)[C@H](C)NC(=O)[C@H](CC(=O)O)NC(=O)[C@@H](NC(=O)[C@H](CC(C)C)NC(=O)[C@H](CC(C)C)NC(=O)[C@H](C)NC(=O)[C@H](CC(C)C)NC(=O)[C@H](CC(=O)O)NC(=O)[C@H](CC(C)C)NC(=O)[C@H](CC(C)C)NC(=O)[C@H](CC(C)C)NC(=O)[C@H](CC(C)C)NC(=O)[C@@H]1CCCN1C(=O)[C@@H](NC(=O)[C@@H](NC(=O)[C@H](Cc1ccccc1)NC(=O)[C@H](CC(C)C)NC(=O)[C@H](Cc1c[nH]c2ccccc12)NC(=O)[C@H](CC(=O)O)NC(=O)[C@H](C)NC(=O)[C@H](Cc1ccc(O)cc1)NC(=O)[C@H](CCCNC(=N)N)NC(=O)[C@H](C)NC(=O)[C@H](Cc1c[nH]c2ccccc12)NC(=O)[C@H](Cc1ccc(O)cc1)NC(=O)[C@@H](NC(=O)[C@@H]1CCCN1C(=O)[C@H](CC(N)=O)NC(=O)[C@H](CCC(N)=O)NC(=O)[C@H](CCC(=O)O)NC(=O)CNC(=O)CN)[C@@H](C)CC)[C@@H](C)O)[C@@H](C)O)C(C)C)[C@@H](C)O)C(=O)NCC(N)=O)C(C)C | MTT | without Ca2+ | reference: pH 6.0 over pH 7.4 | IC50 fold decrease | 5 fold
